Assay results collected from several papers.
Each line is one published result; not all experiments were run side by side. ± gives the spread as reported.

| SMILES | assay | system | setting | how to read | measurement | result |
| --- | --- | --- | --- | --- | --- | --- |
| O=C(CN1CCN(c2cc3c(cc2F)c(=O)c(C(=O)O)cn3C2CC2)CC1)Nc1ccc(Cl)cc1 |  | BALB/c mice, female, plasma | iv, 1.25 mg/kg |  | clearance | 0.00447 mL/min |
| CN[C@](C)(C[18F])C(=O)O |  | mouse, pancreas | 2 h, tumour-bearing |  | tracer uptake | 18 %ID/g |
| COC[C@@H](NC(C)=O)C(=O)NCc1ccc(-c2cccc(Cl)c2)cc1 | MES seizure | Sprague-Dawley rat male | oral | baseline: TD50 over ED50 | protective index | > 91 |
| CC[C@H](C)C(=O)N1CCC(NC(=O)Nc2ccc(OC(F)(F)F)c(F)c2)CC1 |  | healthy volunteers | oral, 0.5 mg single dose, device site dermatitis |  | subjects with dermatitis TEAE | 0% |
| O=C(O)CCC(NP(=O)(O)OCCC[C@@H](NC(=O)CCC(NC(=O)CCCCCNC(=O)c1ccc([18F])cc1)C(=O)O)C(=O)O)C(=O)O (stereo partly shown) | radioactivity biodistribution | mouse, PC-3 xenograft, tumour, blood | 2 h |  | tumour/blood ratio | 9.15 ± 3.76 |
| CC[C@@H](C)[C@@H](NC(=O)[C@@H](C)NC(=O)[C@@H](CCCCN)NC(=O)[C@@H](CC(C)C)NC(=O)[C@@H](C)NC(=O)[C@H](NC(=O)[C@@H](Cc1c[nH]cn1)NC(=O)[C@@H](CC(C)C)NC(=O)[C@H](NC(=O)[C@H](NC(=O)[C@@H](CCCCN)NC(=O)[C@@H](CCCCN)NC(=O)[C@@H](C)NC(=O)[C@@H](CO)NC(=O)[C@@H](CCCCN)NC(=O)[C@@H](Cc1ccccc1)NC(=O)[C@H](NC(=O)[C@@H](CCCCN)NC(=O)[C@@H](CC(C)C)NC(=O)[C@@H](Cc1ccccc1)NC(=O)[C@@H](CO)NC(=O)[C@@H](CCCCN)NC(=O)[C@@H](Cc1c[nH]c2ccccc12)NC(=O)[C@@H](CCCCN)NC(C)=O)[C@H](C)O)[C@H](C)O)C(C)C)[C@H](C)O)C(=O)N[C@H](CO)C(=O)N[C@H](CO)C(N)=O | circular dichroism at 222 nm | benign buffer 50% TFE | 5 °C |  | mean residue ellipticity | 34100 deg cm2/dmol |
| O=c1cc(-c2ccccc2)oc2c(Br)c(O)c(O)c(O)c12 |  | C57BL/6 mouse, plasma | intravenous, 10 mg/kg, single dose |  | half-life | 1 h |
| CC(CCC(=O)NCC(=O)O)C1CCC2C3CCC4CC(OC5OC(C(=O)O)C(O)C(O)C5O)CCC4(C)C3CC(O)C12C (stereo not shown) |  | human, SLCO1B1 c.521 C/C, plasma | fasting, geometric mean, sex-adjusted |  | plasma concentration | 367 ng/mL |
| CC(C)C[C@@H](NC(=O)[C@@H](CCCNC(=N)N)NC(=O)[C@@H](Cc1c[nH]cn1)NC(=O)[C@@H](Cc1c[nH]c2ccccc12)NC(=O)[C@@H](Cc1c[nH]cn1)NC(=O)[C@@H](Cc1ccccc1)NC(=O)[C@H](NC(=O)[C@@H](Cc1ccc(O)cc1)NC(=O)CNC(=O)CNC(=O)CCOCCOCCOCCNC(=O)CN1CCN(CC(=O)O)CCN(CC(=O)O)CC1)[C@H](C)O)C(=O)N[C@H](CC(N)=O)C(=O)N1CCC[C@@H]1C(=O)O [gallium-68 labelled] |  | C57BL/6 mice, B16-F10 tumour | 60 min post injection, with: GP12 blocking |  | tumour to blood ratio | 0.53 ± 0.12 |
| CCCC[C@H]1C(=O)N(C)[C@@H](CCCC)C(=O)N[C@@H](CCCNC(=O)CN2CCN(CC(=O)O)CCN(CC(=O)O)CCN(CC(=O)O)CC2)C(=O)N[C@H](C(=O)NCC(N)=O)CSCC(=O)N[C@@H](Cc2ccc(O)cc2)C(=O)N(C)[C@@H](C)C(=O)N[C@@H](CC(N)=O)C(=O)N2CCC[C@H]2C(=O)N[C@@H](Cc2c[nH]cn2)C(=O)N[C@@H](CC(C)C)C(=O)N(C)CC(=O)N[C@@H](Cc2c[nH]c3ccccc23)C(=O)N[C@@H](CO)C(=O)N[C@@H](Cc2c[nH]c3ccccc23)C(=O)N1C [gallium-68 labelled] |  | NOD/SCID mice, CHO-hPD-L1 xenograft, tumour over muscle | iv, dose not given, 60 min | baseline: tumour over muscle | tissue-to-tissue ratio | 10.3 ± 1.66 |
| COc1cc2ccnc(Cc3ccc(O[11CH3])c(OC)c3)c2cc1OC |  | Sprague-Dawley rats, heart | intravenous, 0.5 h |  | tissue uptake | 0.092 ± 0.017 %ID/g |
| CCCCCCCCCCCCC(=O)O.O=C1CCCC2C3CCCN4CCCC(CN12)C34 (stereo not shown) | pyrene fluorescence | water | concentration not given, 298.15 K |  | critical micelle concentration | 0.00337 mol/kg |
| CC1=CC=c2ccc3c4c2[N]1[Re](=[C]=O)(=[C]=O)(=[C]=O)([C]#[N+]c1ccc(Cl)cc1)[N]4C(C)=CC=3.O=S(=O)([O-])C(F)(F)F |  | PBS, up to 1% DMSO | pH 7.4, air-equilibrated |  | emission maximum | 501 nm |
| COc1cc(NC(=O)C(=O)c2c(C)n(Cc3ccc(Cl)cc3)c3ccc(C)cc23)ccn1 |  | female cynomolgus monkey, plasma | intravenous, 1 mg/kg |  | AUC(0-inf) | 1760 ng·h/mL |
| [2H]C([2H])([2H])C([2H])([2H])C([2H])([2H])OC(C(=O)OC1CCNCC1)(c1ccccc1)c1ccccc1 | refers to: diarrhea | healthy Japanese male | oral, 18 mg, 16 days, multiple ascending dose |  | adverse events | 57.1% |
| CN(C)C(CNC(=O)Nc1cc(C(F)(F)F)ccc1N1CCOCC1)c1ccncc1 (stereo not shown) |  | mouse, serum | intraperitoneal, 120 mg/kg single dose |  | serum total protein | 4.5 g/dL |
| CC(C)[C@H](NC(=O)CNC(=O)[C@H](CCC(N)=O)NC(=O)[C@H](C)N)C(=O)O | Possibly drug-related | human | 30 mg/kg, 3 days, thrice daily dosing |  | subjects with adverse events | 0% |
| Cc1ccccc1CN1CCC(O)(c2ccc(Cl)c(C(F)(F)F)c2)CC1 |  | BALB/c mouse | intraperitoneal, 50 mg/kg, 96 h |  | survival | 100% |
| CCN(Cc1ccccc1)C(=O)CCc1nc(CN2CCN(C(=O)Cc3ccc(OC)c(OC)c3)CC2)no1 |  | rat, brain | intravenous, 1 mg/kg, 1 h |  | concentration | 2.4 ng/g |
| CC(C)[C@@H]1NC(=O)[C@H](Cc2ccccc2)NC(=O)[C@H](Cc2ccc(O)cc2)NC(=O)CCSSC[C@@H](C(=O)N2CCC[C@H]2C(=O)N[C@H](CCCNC(=N)N)C(=O)NCC(N)=O)NC(=O)[C@H](CCC(N)=O)NC1=O |  | Wistar rat, blood | intravenous, 1 µg/kg single dose, 72 h |  | ALT | 20.6 ± 2.7 IU/L |
| COC(=O)C[C@](O)(CCCC(C)(C)OC(C)=O)C(=O)O[C@@H]1C(OC)=C[C@]23CCCN2CCc2cc4c(cc2[C@H]13)OCO4 |  | CD1 mouse, spleen | oral, 1 mg/kg, 8 h |  | tissue concentration | 9.22 ng/mL |
| CC(C)C[C@@H](N)C(=O)NCC(=O)N[C@H](C)C(=O)N[C@H](CO)C(=O)N[C@H](Cc1c[nH]c2ccccc12)C(=O)N[C@H](Cc1c[nH]cn1)C(=O)N[C@H](CCCNC(=N)N)C(=O)N1CCC[C@@H]1C(=O)N[C@H](CC(=O)O)C(=O)N[C@H](CCCCN)C(=O)N[C@H](CS)C(=O)N[C@H](CS)C(=O)N[C@H](CC(C)C)C(=O)NCC(=O)N[C@H](Cc1ccc(O)cc1)C(=O)N[C@H](CCC(N)=O)C(=O)N[C@H](CCCCN)C(=O)N[C@H](CCCNC(=N)N)C(=O)N1CCC[C@@H]1C(=O)N[C@H](CC(C)C)C(=O)N1CCC[C@@H]1C(N)=O | LC-MS/MS | rat plasma extract | 5000 ng/mL, 4 h, 8 °C, autosampler storage |  | measured concentration | 4990 ± 174 ng/mL |
| COC1CC(OC2CCC3(C)C4CCC5(C)C(C6=CC(=O)OC6)CCC5(O)C4CCC3(O)C2)OC(C)C1OC1OC(CO)C(O)C(O)C1O (stereo not shown) |  | human liver S9 | 1 and 3 µg/mL, 120 min |  | metabolic stability | stable |
| C[C@H]1N=C(c2ccccc2F)c2cc(Br)ccc2-n2cnc(C(=O)OC3O[C@H](C(=O)O)[C@@H](O)[C@H](O)[C@H]3O)c21 (stereo partly shown) |  | Swiss Webster mouse | oral, 750 µg of parent drug, 0 to 48 h | baseline: dose | excretion in urine and feces | 6.4 ± 1.1% |
| COc1ccc(NC(=O)Cn2c(=O)c3ccccc3n(CC(=O)Nc3cc([125I])c(OC)cc3OC)c2=O)cc1 |  | rat, brain | intravenous, 5 min |  | tracer uptake | 0.01 %ID/g |
| CC(C)[C@H](NC(=O)CNC(=O)[C@H](CCC(N)=O)NC(=O)[C@H](C)N)C(=O)O |  | healthy male volunteers | intravenous, 90 mg/kg/h, 2 h, with: LPS 2 ng/kg |  | subjects with Probably related AE | 0% |
| CC[C@H](C)[C@H](NC(=O)[C@H](C)NC(=O)CNC(=O)[C@H](Cc1c[nH]cn1)NC(=O)[C@@H](NC(=O)[C@H](Cc1ccccc1)NC(=O)[C@H](CCCCN)NC(=O)CNC(=O)[C@H](C)NC(=O)[C@H](CCCCN)NC(=O)[C@H](Cc1ccccc1)NC(=O)[C@@H](NC(=O)[C@H](Cc1c[nH]cn1)NC(=O)[C@H](CCCCN)NC(=O)[C@H](Cc1ccccc1)NC(=O)[C@@H](NC(=O)[C@H](CO)NC(=O)CNC(=O)[C@H](Cc1c[nH]c2ccccc12)NC(=O)CNC(=O)[C@H](C)N)[C@@H](C)CC)[C@@H](C)CC)[C@@H](C)CC)C(=O)N[C@@H](CCC(N)=O)C(=O)N[C@@H](C)C(=O)N[C@@H](Cc1c[nH]cn1)C(=O)N[C@@H](CC(N)=O)C(=O)N[C@@H](CC(=O)O)C(N)=O |  | zebrafish embryos | 1 h, 4, 28, 52 hpf |  | acute toxic concentration | 5 to 25 µg/mL |
| CSCC[C@@H]1NC(=O)[C@@H]2CSSC[C@H](NC(=O)[C@H](CO)NC(=O)[C@H](C)N)C(=O)N[C@@H](CCCNC(=N)N)C(=O)N[C@@H]([C@@H](C)O)C(=O)N3CCC[C@H]3C(=O)N[C@@H](CCCCN)C(=O)N[C@@H](CC(=O)O)C(=O)N[C@H]3CSSC[C@H](NC(=O)[C@H](CCCCN)NC(=O)[C@H](CCCNC(=N)N)NC(=O)[C@H](CC(N)=O)NC1=O)C(=O)N[C@@H](CCCCN)C(=O)N[C@H]1CSSC[C@H](NC(=O)[C@@H]4CCCN4C(=O)[C@H](CC(=O)O)NC(=O)[C@H](C)NC3=O)C(=O)N[C@@H](C)C(=O)N[C@@H](CCCCN)C(=O)N[C@@H](CCC(=O)O)C(=O)N[C@@H]([C@@H](C)O)C(=O)NCC(=O)N[C@@H](CSSC[C@@H](C(N)=O)NC(=O)[C@H](CCCNC(=N)N)NC(=O)[C@H](CC(N)=O)NC1=O)C(=O)N1CCC[C@H]1C(=O)N[C@@H](Cc1ccc(O)cc1)C(=O)NCC(=O)N[C@@H](CCCCN)C(=O)N2 |  | DA rat, pristane-induced arthritis, serum | subcutaneous, 0.1 mg/kg every other day, end of 21-day trial |  | ALT | 51.4 U/L |

Excerpt of the above:
| SMILES | assay | system | setting | how to read | measurement | result |
| --- | --- | --- | --- | --- | --- | --- |
| CC[C@@H](C)[C@@H](NC(=O)[C@@H](C)NC(=O)[C@@H](CCCCN)NC(=O)[C@@H](CC(C)C)NC(=O)[C@@H](C)NC(=O)[C@H](NC(=O)[C@@H](Cc1c[nH]cn1)NC(=O)[C@@H](CC(C)C)NC(=O)[C@H](NC(=O)[C@H](NC(=O)[C@@H](CCCCN)NC(=O)[C@@H](CCCCN)NC(=O)[C@@H](C)NC(=O)[C@@H](CO)NC(=O)[C@@H](CCCCN)NC(=O)[C@@H](Cc1ccccc1)NC(=O)[C@H](NC(=O)[C@@H](CCCCN)NC(=O)[C@@H](CC(C)C)NC(=O)[C@@H](Cc1ccccc1)NC(=O)[C@@H](CO)NC(=O)[C@@H](CCCCN)NC(=O)[C@@H](Cc1c[nH]c2ccccc12)NC(=O)[C@@H](CCCCN)NC(C)=O)[C@H](C)O)[C@H](C)O)C(C)C)[C@H](C)O)C(=O)N[C@H](CO)C(=O)N[C@H](CO)C(N)=O | circular dichroism at 222 nm | benign buffer 50% TFE | 5 °C |  | mean residue ellipticity | 34100 deg cm2/dmol |
| O=C(O)CCC(NP(=O)(O)OCCC[C@@H](NC(=O)CCC(NC(=O)CCCCCNC(=O)c1ccc([18F])cc1)C(=O)O)C(=O)O)C(=O)O (stereo partly shown) | radioactivity biodistribution | mouse, PC-3 xenograft, tumour, blood | 2 h |  | tumour/blood ratio | 9.15 ± 3.76 |
